Experimental data collected from several papers.
Parts stem from different laboratories: compare values within a part only.

Set 1 — method: RNA Bind-n-Seq; form: RNA; sample: in vitro; concentration: 365 nM; relative to: no-protein control; direction: higher = stronger binding; quantity: RBNS enrichment (R)
Target: RNA binding protein fox-1 homolog 2, RRM domain, GST-SBP tag (RBFOX2, Homo sapiens, UniProt O43251-10, residues 100-194)
Setting: natural RNA segment, single round, ends assumed
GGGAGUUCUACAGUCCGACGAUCUAAUUAUCAUACCUACCUACUUUAAAUUUUAGGUAGAAAAUUAUCUGAUUUAAAUACAAACAUAUUUUUCUCACAUUGAGUAAUAUGCAUAAUGUAGUUCCAAAUGUAUUUGGAAUUCUCGGGUGCCAA: 1.08
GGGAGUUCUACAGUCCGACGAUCCCUCUUGCAAAGUAGCCUCUUUCAUCCCAUACUCAAAAUACCCAGUUUAGCAAGCAACUGAGAUUUAAGUCUCUCUGGCCCUAAGAGGUUUUUCCUCUUUGCUCCCUCCAUGGAAUUCUCGGGUGCCAA: 5.09
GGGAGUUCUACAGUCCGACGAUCGGGUAUUACCUACCAAGAUAAUGAGAGCUUCUAAGGUUGAGGGGAGCUGAAUAGUUUGCACAAGAACGGGAUGCUAGUAAAAACAUAAAAAUAACUCGAAUCAAAUUCCAUGGAAUUCUCGGGUGCCAA: 0.964
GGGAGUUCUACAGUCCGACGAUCAGAGAGGAGCGCGCUUCCUUUCCUCCCCGCUGCCGCCCACCCUGGGGAGAGACUUUUGCGGGGAGGGAAGGCGGAGCUGAGGACAGCCAGCUCCGCCCUCCCAAGGCUGUUGGAAUUCUCGGGUGCCAA: 0.38
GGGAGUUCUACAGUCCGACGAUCAUUACCCCAGGUAACACUGGGCAAAAAUCUGGGGUGCAUAAUAGGGAAUUCUGAAUUCUUAGAUUUGAUUAUCCCAGAUCAUUUUUGCUAAGAAAAAUUCUUAUUUCUUUUGGAAUUCUCGGGUGCCAA: 0.475

Set 2 — method: protein binding microarray; form: double-stranded DNA, one strand shown; sample: in vitro; concentration: not given; relative to: not given; direction: higher = stronger binding; quantity: E-score
Target: Histone acetyltransferase KAT6A, winged helix 1, GST fusion (KAT6A, Homo sapiens, UniProt Q92794, residues 1-85)
Setting: 8-mer, flanks averaged, mean of 2 arrays, mostly near background
Construct (chain): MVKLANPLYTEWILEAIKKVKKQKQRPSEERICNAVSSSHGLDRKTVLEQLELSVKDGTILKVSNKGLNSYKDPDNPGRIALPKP
ATTCAAGG: -0.226
GCCCCAAA: -0.0334
GACGCAGC: 0.0772

Set 3 — method: protein-binding microarray; form: double-stranded DNA, one strand shown; sample: in vitro; concentration: 2200 nM top; setting: 60-bp whole probe; with: salmon DNA 0.4 mg/ml; relative to: random background probes; direction: higher = stronger binding; quantity: fitted relative affinity
Target: Interferon regulatory factor 7, full length, phosphomimetic (IRF7, Homo sapiens, UniProt Q92985, residues 1-503, S471D/S472D/S475D/S476D/S477D/S483D/S484D/S487D)
Residues (chain): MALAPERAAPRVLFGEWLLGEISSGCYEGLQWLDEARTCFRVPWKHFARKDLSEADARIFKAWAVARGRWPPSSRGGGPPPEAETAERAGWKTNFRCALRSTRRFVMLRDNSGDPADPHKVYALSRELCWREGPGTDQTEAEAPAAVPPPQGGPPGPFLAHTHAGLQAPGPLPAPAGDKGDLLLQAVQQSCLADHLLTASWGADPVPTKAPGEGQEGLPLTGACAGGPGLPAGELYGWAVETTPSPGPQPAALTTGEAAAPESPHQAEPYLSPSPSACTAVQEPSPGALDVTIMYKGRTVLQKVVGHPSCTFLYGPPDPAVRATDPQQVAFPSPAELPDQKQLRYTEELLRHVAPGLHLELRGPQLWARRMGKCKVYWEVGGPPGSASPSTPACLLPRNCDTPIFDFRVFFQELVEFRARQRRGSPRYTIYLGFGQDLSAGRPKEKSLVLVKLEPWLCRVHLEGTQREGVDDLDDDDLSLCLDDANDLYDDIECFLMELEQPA
GCCTAGCACGCCGGTCTCCTTCTCCTGACGTGCTAGGTCTTGATTCGCTTGACGCTGCTG: 0.706 z-score
GCCTAGCACGACGGTATCCTACTGCCGACGTGCTAGGTCTTGATTCGCTTGACGCTGCTG: 0.506 z-score
GCCTAGCACTTTTTTTTTTTTTCTGATCCGTGCTAGGTCTTGATTCGCTTGACGCTGCTG: 2.62 z-score
GCCTAGCACGACGGTTCCGATTTCGGGACGTGCTAGGTCTTGATTCGCTTGACGCTGCTG: 2.48 z-score

Other studies, line by line
PhoQ, residues 284 288 289 292 302 303 ALSMDL  fold induction (PhoP, residues 12 14 15 18 19 VQGLL (Escherichia coli, UniProt P23836); Sort-seq, refers to: YFP reporter; E. coli; PhoQ-PhoP variant library, with: 10 µM Mg2+; relative to: high Mg2+ state, higher = stronger signaling): 5.19

Repeated from above (set 3):
GCCTAGCACGCCGGTCTCCTTCTCCTGACGTGCTAGGTCTTGATTCGCTTGACGCTGCTG: 0.706 z-score
GCCTAGCACGACGGTATCCTACTGCCGACGTGCTAGGTCTTGATTCGCTTGACGCTGCTG: 0.506 z-score
